Experimental data gathered from unrelated publications.
Each line is one published result; not all experiments were run side by side.

Under “log2 fold change”, `Cc1ncsc1-c1ccc(C(C)NC(=O)C2CC(O)CN2C(=O)C(NC(=O)CCCCCCCCCCN2CCCC(Nc3ncc(Cl)c(Nc4ccccc4S(=O)(=O)C(C)C)n3)C2)C(C)(C)C)cc1` (centres unmarked) is recorded as -2.38 (22Rv1; RNA-seq, measured: ZNF41 mRNA; concentration not given; baseline: DMSO).
The GI50 of `CCN(C(=O)c1cc(F)ccc1Oc1nncnc1N1CCC2(C1)CN([C@H](CCCN(C)CCOC)C(C)C)C2)C(C)C` is reported as over 10 µM (IGROV-1; cell growth or viability; 72 h).
For `CCN(CC)CC(=O)Nc1cccc(-n2cc(-c3ccc4ccc(-c5cn(-c6cccc(NC(=O)CN(CC)CC)c6)nn5)cc4c3)nn2)c1`, the fold regulation was -1.1 (RCC4; PCR angiogenesis array, measured: SPHK1; 5 x IC50, 4 h, normoxia; baseline: untreated).
For `Cn1ncc2cc(-c3cncc(Cl)c3N3CCC4(CCNC4=O)CC3)ccc21`, “log2 fold change” read -2.49 (LS174T; gene expression, microarray, measured: SMPD1 mRNA; concentration not given, 24 h; baseline: untreated cells).
For `CN1CCCNC(=O)c2cccc(c2)C(=O)NCCCN(C)CCCNc2cccc3c2C(=O)c2cccc(c2C3=O)NCCC1`, “log2 fold change” read -0.713 (SAS; RNA-Seq, measured: KIF14 mRNA; 1 µM, 6 h; baseline: untreated cells).
`COC(=O)c1cc(NC2=NC(=O)C(=Cc3ccc(N(C)C)cc3)S2)ccc1OC(C)=O` gave a metabolite level of -0.17 fold change (MCF7; GC-MS, measured: Lactic acid; 1 µM; baseline: DMSO).
The IC50 of `CC(C)c1ccc(N(C)c2ccc3c(c2)OCC[C@H]3CNc2cnccc2C(=O)O)cc1` is reported as at least 10 µM (SK-N-SH; cell growth or viability, ATP luminescence; 7 days).
With `CNS(=O)(=O)Nc1nccc(Cc2c(C)c3ccc(Oc4ncccc4F)cc3oc2=O)c1F` the IC50 was 0.00616 µM (SK-N-SH; cell viability, CellTiter-Glo; 7 days).

A few entries again:
For `Cn1ncc2cc(-c3cncc(Cl)c3N3CCC4(CCNC4=O)CC3)ccc21`, “log2 fold change” read -2.49 (LS174T; gene expression, microarray, measured: SMPD1 mRNA; concentration not given, 24 h; baseline: untreated cells).
